Experimental data gathered from unrelated publications.
Each line is one published result; not all experiments were run side by side. ± marks the error that the study gave.
Target: Cytochrome P450 3A4 (CYP3A4, Homo sapiens, UniProt P08684)
Chain of UniProt P08684 (whole entry, looked up): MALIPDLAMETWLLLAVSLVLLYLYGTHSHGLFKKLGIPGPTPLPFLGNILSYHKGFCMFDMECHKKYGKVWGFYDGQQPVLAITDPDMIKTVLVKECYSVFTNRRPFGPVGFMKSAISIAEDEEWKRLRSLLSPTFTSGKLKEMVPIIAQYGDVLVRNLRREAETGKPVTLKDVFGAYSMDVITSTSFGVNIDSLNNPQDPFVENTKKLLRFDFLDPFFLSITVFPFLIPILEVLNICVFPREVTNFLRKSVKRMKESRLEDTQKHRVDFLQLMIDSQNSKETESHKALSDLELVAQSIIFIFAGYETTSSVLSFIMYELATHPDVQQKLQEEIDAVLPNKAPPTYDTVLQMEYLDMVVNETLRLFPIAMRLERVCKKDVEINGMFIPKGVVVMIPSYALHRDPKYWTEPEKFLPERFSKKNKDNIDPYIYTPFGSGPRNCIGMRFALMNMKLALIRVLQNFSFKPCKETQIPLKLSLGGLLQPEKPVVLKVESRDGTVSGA

The inhibition of CC(C)Cn1c(SCC(=O)N2CCc3ccccc3C2)nc2cc(Cl)ccc2c1=O is reported as 76% (enzyme activity, inhibitor, fluorescence; insect cell microsomes; 10 µM).
Cc1ccc(OCC(=O)N(Cc2cccs2)c2ccn[nH]2)cc1 gave an inhibition of 88% (enzyme activity, inhibitor, fluorescence; Sf9; 10 µM).
The kcat of COc1ccc2cc(NC(=O)c3cc(-c4cccnc4)nc4ccccc34)ccc2c1 is reported as 0.112 s⁻¹ (substrate, item: naphthalene-hydroxylated metabolite M1; baculosomes).
The heme destroyed of O=C(NCCCc1cccnc1)C(Cc1ccccc1)SCC(Cc1ccccc1)NC(=O)C(F)(F)F (centres unmarked) is reported as 29% (16 µM, 2 h, added: 10 mM H2O2; relative to: ligand-free enzyme).
CC(C)c1nc(CN(C)C(=O)NC(C(=O)NC(Cc2ccccc2)CC(O)C(N)Cc2ccccc2)C(C)C)cs1 (centres unmarked) has a Kd of 3600 nM (binding, absorbance).
For CCC1CC2C(C)=CC3C(=O)CCCC3C=CC(C)=CC2C(=O)O1 (centres unmarked), the remaining activity was 80.9% (human liver microsomes; 10 µM, 10 min, pH 7.4, added: testosterone 2 µM; relative to: untreated).
CNc1c(C)n(C)n(-c2ccccc2)c1=O: N-demethylation “inactive” (4-aminoantipyrine formation, substrate, recombinant supersomes; 50 µM, up to 2 h).
Cc1c(NC(=O)c2ccc3c(c2)CC[C@@H]2C[C@@](O)(C(F)(F)F)CC[C@@]32Cc2ccccc2)ccc[n+]1[O-] gave an IC50 of over 100000 nM (enzyme activity, reversible inhibitor; pooled human liver microsomes; added: nifedipine oxidation).
CCc1nc(N)nc(N)c1C#CC(C)c1cccc(-c2cc(C)nc(C)c2)c1 (racemic) has an IC50 of 500 nM (enzyme activity, inhibitor, fluorescence).
The IC50 of NS(=O)(=O)NCC(F)(F)c1ccccc1F is reported as over 74000 nM (enzyme activity, inhibitor).
The Hill coefficient of CC(=O)OC1(C(C)=O)CCC2C3C=C(C)C4=CC(=O)C(O)CC4(C)C3CCC21C (centres unmarked) is reported as 2 ± 0.4 (substrate).
COc1ccc2cc(NC(=O)c3cc(-c4ccncc4)nc4ccccc34)ccc2c1 gave a metabolite fraction of about 40% (substrate, LC-MS, item: 5-hydroxylated naphthalene metabolite; baculosomes).
CCc1nc(N)nc(N)c1C#CC(C)c1cc(-c2cc(C)nc(C)c2)ccc1OC(F)(F)F (racemic) gave an IC50 of over 50000 nM (enzyme activity, inhibitor, fluorescence).
With COc1cc(OC)c(F)c(/C=C/c2cnc3ccn(S(=O)(=O)c4cn(CCF)cn4)c3n2)c1F the inhibition was 71% (enzyme activity; human liver microsomes; 10 µM, 20 min, added: midazolam).
O=C(NCCCc1cccnc1)C(Cc1ccccc1)SCC(Cc1ccccc1)NS(=O)(=O)c1ccccc1 (centres unmarked) gave a heme destroyed of 26% (16 µM, 2 h, added: 10 mM H2O2; relative to: ligand-free enzyme).
CC(C)c1nc(CN(C)C(=O)NC(C(=O)NC(Cc2ccccc2)CC(O)C(Cc2ccccc2)NC(=O)OCc2cccs2)C(C)C)cs1 (centres unmarked) gave a Kd of 500 nM (binding, absorbance).
With CC(C)(C)OC(=O)NC(CSC(Cc1ccccc1)C(=O)NCCCc1cccnc1)CC1c2ccccc2-c2ccccc21 (mixture of isomers) the IC50 was 1320 nM (enzyme activity, inhibitor).
The IC50 of CCc1nc(N)nc(N)c1C#CC(C)c1cc(-c2cc(C)nc(C)c2)ccc1OC (racemic) is reported as 11000 nM (enzyme activity, inhibitor, fluorescence).
With O=C(N[C@@H](Cn1ccnc1)c1ccc(F)cc1F)c1ccc(-c2nnc(-c3ccccc3)o2)cc1 the IC50 was 180 ± 14 nM.
O=C(CNC(=O)C(F)(F)F)NC(CSC(Cc1ccccc1)C(=O)NCCCc1cccnc1)Cc1ccccc1 (centres unmarked) has an IC50 of 300 nM (enzyme activity, inhibitor).
With O=C(CS(=O)(=O)Cc1ccco1)C12CC3CC(CC(C3)C1)C2 the inhibition was 52% (enzyme activity, inhibitor; 10 µM, added: substrate BQ).
With O=C(CNC(=O)C(F)(F)F)NC(CSC(Cc1ccccc1)C(=O)NCCc1cccnc1)Cc1ccccc1 (centres unmarked) the IC50 was 240 nM (enzyme activity, inhibitor).
The IC50 of CCc1nc(N)nc(N)c1C#C[C@H](C)c1cc(-c2cc(C)nc(C)c2)ccc1Cl is reported as 41000 nM (enzyme activity, inhibitor, fluorescence).
